Measured values pooled from the literature.
Compare with care: the assays were run in different laboratories. ± marks the error that the study gave.

Compound = CCn1c(=O)c(-c2cc(NC(=O)Nc3ccccc3)c(F)cc2Br)cc2cnc(NC)cc21; test system = human plasma; setting = 150 ng/mL, 1 months, -20 °C, low QC; endpoint = long-term stability accuracy; result = 8.29%
Compound = CNC(=O)c1ccc(-c2cnc3ncc(Cc4ccc5ncccc5c4)n3n2)cc1F; test system = HCC patients; setting = oral, 600 mg twice daily, all grades RP2D expansion; endpoint = ALT increased incidence; result = 27%
Compound = COc1ccc2c(c1)CN(C(=O)CCN1CCC(Cc3ccccc3)CC1)CC[S@@+]2[O-]; test = telemetry; test system = conscious dog; setting = intravenous, 2 mg/kg, 24 h; endpoint = heart rate; result = 83 ± 16 beats/min
Compound = C=CC(=O)Nc1cc(Nc2nccc(-c3cn(C)c4ccccc34)n2)c(OC)cc1N(C)CCN(C)C; test = storage stability; test system = human dried blood spot; setting = 2 h, -80 °C, HQC level; endpoint = recovery; result = 105%
Compound = CNC(=O)c1ccc(-c2cnc3ncc(Cc4ccc5ncccc5c4)n3n2)cc1F; test system = Japanese patients; setting = oral, 400 mg twice daily, grade 3/4; endpoint = Seizure patients; result = 0%
Compound = N[C@@H]1c2cccnc2[C@H](OC(=O)N2CCC(n3c(=O)[nH]c4ncccc43)CC2)CC[C@H]1c1cccc(F)c1F; test system = human; setting = oral, dose not given, added: fluconazole; endpoint = decrease in CL/F; result = 42.7%
Compound = Nc1ncnc2c1ncn2[C@H]1C[C@@H]2OP(=O)(O)OC[C@H]3O[C@@H](n4cnc5c(N)ncnc54)C[C@@H]3OP(=O)(O)OC[C@H]2O1; test system = non-tumor-bearing mice, serum; setting = intravenous, 1 mg/kg, toxicity study; endpoint = GGT; result = 1.23 ± 0.56 U/L
Compound = Cn1ncnc1[C@H]1c2n[nH]c(=O)c3cc(F)cc(c23)N[C@@H]1c1ccc(F)cc1; test system = human patients, plasma; setting = oral, 600 µg/m2, dose level DL3, median, added: temozolomide 20 mg/m2 daily days 2-6; endpoint = accumulation half-life; result = 46.8 h
Compound = CCn1cc(C(=O)N2CCOCC2)c(=O)c2cc(NC3Cc4ccccc4C3)cnc21; test system = human, fed; setting = oral suspension, 300 mg/day twice daily, day 8, arithmetic mean; endpoint = half-life; result = 5.49 h
Compound = Nc1cccc2ccc(/C=C/C(=O)c3ccccc3)cc12; test system = toluene; setting = 20 °C; endpoint = emission maximum; result = 552 nm
Compound = CSc1ccc(S(=O)(=O)NCc2ccccn2)cc1; test system = octanol/buffer; setting = pH 11, known kinase inactives set; endpoint = logP; result = 1.91
Compound = CCCOc1ccc([C@H]2CNC(=O)N2c2ccc3[nH]cnc3c2)cc1; test system = human, elderly, fasted, cerebrospinal fluid; setting = oral, 300 mg twice daily, capsule, 6 h after final dose, day 7, geometric mean; endpoint = CSF concentration; result = 24.7 ng/mL
Compound = O=C(Nc1nc2cccc(-c3ccc(CN4CCS(=O)(=O)CC4)cc3)n2n1)C1CC1; test = refers to: gingival bleeding; test system = human rheumatoid arthritis patients; setting = oral, 150 mg once daily, 4 weeks, regardless of relatedness; endpoint = treatment-emergent adverse events; result = 0%
Compound = N=C(N)c1ccc2cc(NS(=O)(=O)c3ccccc3)ccc2c1; test system = octanol/buffer; setting = pH 11, urokinase ligand set; endpoint = logP; result = -0.29
Compound = Cn1nc2c(=O)n(C3CC3)cnc2c1[C@](O)(c1cnc(C(F)(F)F)c(Cl)c1)C(F)(F)F; test system = humanized SCID mice, blood; setting = 1 mg/kg once daily, 6 days, infected; endpoint = AUC(0-24 h); result = 6.66 µM·h
Compound = N#Cc1ccc2c(c1)[C@H]1CCCN(C(=O)c3ccc4[nH]cnc4c3)[C@H]1C2; test system = human, plasma; setting = 20 mg once daily, day 2; endpoint = pre-dose plasma concentration; result = 268 nmol/L
Compound = N[C@H]1C(O)O[C@H](CO)[C@@H](O)[C@@H]1O (some centres unmarked); test system = aqueous solution; setting = 35 mM, added: glucose; endpoint = osmolality; result = 31 mOsmol/kg
Compound = Cc1c(OCC(F)(F)F)ccnc1C[S+]([O-])c1nc2ccccc2[nH]1 (centres unmarked); test system = human; setting = oral, median; endpoint = dose-normalised Cmax; result = 2.3 µg/mL per mg/kg
Compound = Cl.[2H]C([2H])([2H])CC(=O)c1cnc(NC(=O)C2CC2)cc1Nc1cccc(-c2ncn(C([2H])([2H])[2H])n2)c1OC; test = geometric mean; test system = human; setting = oral, 17.5 mg single dose, fasted, liquid; endpoint = Cmax; result = 217 ng/mL
Compound = Cc1ccc([C@@H]2O[C@H](CO)[C@@H](O)[C@H](O)[C@H]2O)cc1Cc1ccc(-c2ccc(F)cc2)s1; test system = Japanese type 2 diabetes patients; setting = 200 mg, day 16, 24 h urine collection; how to read = relative to: baseline; endpoint = urinary calcium excretion change; result = -23.7 mg
